Measurements pooled from the literature.
Compare with care: the assays were run in different laboratories.
Route: oral

`CNC(=O)c1ccc(-c2cnc3ncc(Cc4ccc5ncccc5c4)n3n2)cc1F` gave an AUC(0-t) of 7070 ng·h/mL (human, plasma; 250 mg twice daily, multiple doses, steady state, patients).
The AUC(0-t) of `CCCCCN1C[C@H](O)[C@@H](O)[C@H](O)[C@@H]1CO` is reported as 282 ng·h/mL (human, plasma; 10 mg, single dose, fasted, healthy volunteers).
For `CS(=O)(=O)n1cc2c(n1)CN([C@H]1CO[C@H](c3cc(F)ccc3F)[C@@H](N)C1)C2`, the AUC(0-t) was 48.7 µM·h (male human, plasma; 50 mg, single dose, fasted).
`CCCOc1ccc([C@H]2CNC(=O)N2c2ccc3[nH]cnc3c2)cc1` has an AUC(0-t) of 1340 ng·h/mL (human, plasma; 200 mg, single dose, fasted).
The AUC(0-t) of `CS(=O)(=O)n1cc2c(n1)CN([C@H]1CO[C@H](c3cc(F)ccc3F)[C@@H](N)C1)C2` is reported as 4.1 µM·h (male human, plasma; 5 mg, single dose, fasted, healthy volunteers).
With `CN(C)C/C=C/C(=O)Nc1cc2c(Nc3ccc(F)c(Cl)c3)ncnc2cc1O[C@H]1CCOC1` the AUC(0-t) was 442 ng·h/mL (human, plasma; 20 mg, multiple doses, once daily, steady state, patients).
`CCOc1ccc(Cc2cc([C@@H]3S[C@H](CO)[C@@H](O)[C@H](O)[C@H]3O)c(OC)cc2C)cc1` has an AUC(0-t) of 2960 ng·h/mL (human, plasma; 9 mg, single dose, fasted, healthy volunteers).
For `O=C(NCCN1CCCC1)c1cc(-c2ccc(CN3CCOCC3)cc2)nc2ccc(F)cc12`, the AUC(0-t) was 475 ng·h/mL (human, blood; 50 mg, single dose, whole blood).
With `O=C(c1nc2n(n1)[C@H](c1ccccc1)C[C@@H]2F)C1CC1` the AUC(0-t) was 9820 ng·h/mL (human, plasma; 75 mg, single dose, fasted, healthy volunteers).

Some of these lines once more:
`CCCOc1ccc([C@H]2CNC(=O)N2c2ccc3[nH]cnc3c2)cc1` has an AUC(0-t) of 1340 ng·h/mL (human, plasma; 200 mg, single dose, fasted).
